Experimental data collected from several papers.
Every numbered part comes from another study and shows a few of its results, in no order. Substitutions count along the parent as printed.

Series 1
Target: Prothrombin, mature alpha-thrombin (F2, Homo sapiens, UniProt P00734)
Method: aptamer microarray, sandwich
Form: DNA with 2'F-ANA
Sample: in vitro
Concentration: 200 nM
Setting: whole 15-mer aptamer, many near background
Added: Cy3 exosite-II aptamer, 400 nM
Direction: higher = stronger binding
Sequence: GGTTGGTGTGGTTGG
For `2'F-ANA at 1 2 3 4 5 7 10 11 13 14 15`, “mean fluorescence intensity” read 80.3 a.u.
`2'F-ANA at 2 5 7 9 10 11 13 14 15`: “mean fluorescence intensity” 45.2 a.u.
For `2'F-ANA at 1 5 6 8 9 10 15`, “mean fluorescence intensity” read 47.4 a.u.
Under “mean fluorescence intensity”, `2'F-ANA at 2 8 9 10 11` is recorded as 116 a.u.
`2'F-ANA at 2 7 8 11 12 14` — result for “mean fluorescence intensity”: 207 a.u.
`2'F-ANA at 1 6 7 8 10 11 12 13 14`: “mean fluorescence intensity” 51.1 a.u.
`2'F-ANA at 1 3 4 5 8 9 10 12`: “mean fluorescence intensity” 53.2 a.u.
`2'F-ANA at 1 2 3 4 7 9 10 11 12 14` — result for “mean fluorescence intensity”: 69.8 a.u.
For `2'F-ANA at 2 4 6 7 9 10 11 14`, “mean fluorescence intensity” read 195 a.u.
Under “mean fluorescence intensity”, `2'F-ANA at 3 5 7 8 12 13 14` is recorded as 81.5 a.u.
For `2'F-ANA at 1 6 7 9 10 11 12 13`, “mean fluorescence intensity” read 59.4 a.u.
`2'F-ANA at 3 4 5 6 7 8 14` — result for “mean fluorescence intensity”: 76.3 a.u.
For `2'F-ANA at 1 2 5 6 7 8 9`, “mean fluorescence intensity” read 66.5 a.u.
Under “mean fluorescence intensity”, `2'F-ANA at 2 5 6 10 11 12 13` is recorded as 50.4 a.u.
Under “mean fluorescence intensity”, `2'F-ANA at 3 4 8 9 11 12 14` is recorded as 336 a.u.
`2'F-ANA at 1 2 3 4 8 9 10 11 12 13`: “mean fluorescence intensity” 86.3 a.u.
Under “mean fluorescence intensity”, `2'F-ANA at 1 7 9 10 11 12 13 15` is recorded as 65.2 a.u.
`2'F-ANA at 1 4 7 11 14` — result for “mean fluorescence intensity”: 52.8 a.u.
`2'F-ANA at 1 2 3 5 7 9 11 12 15` — result for “mean fluorescence intensity”: 97.2 a.u.
`2'F-ANA at 1 5 7 8 9 11 12 14 15`: “mean fluorescence intensity” 50.8 a.u.
`2'F-ANA at 4 6 9 11 12 13 14` — result for “mean fluorescence intensity”: 81.7 a.u.
`2'F-ANA at 2 4 6 9 11 12 15`: “mean fluorescence intensity” 312 a.u.
For `2'F-ANA at 1 3 4 7 9 10 12 13 14`, “mean fluorescence intensity” read 52.8 a.u.
For `2'F-ANA at 1 2 3 5 7 8 10 12 13`, “mean fluorescence intensity” read 48.8 a.u.
Under “mean fluorescence intensity”, `2'F-ANA at 1 4 5 6 8 10 12 15` is recorded as 54.9 a.u.

Series 2
Target: Histone acetyltransferase KAT6A, winged helix 1, GST fusion (KAT6A, Homo sapiens, UniProt Q92794, residues 1-85)
Method: protein binding microarray
Form: double-stranded DNA, one strand shown
Sample: in vitro
Concentration: not given
Setting: 8-mer, flanks averaged, mean of 2 arrays, mostly near background
Relative to: not given
Direction: higher = stronger binding
Construct (chain): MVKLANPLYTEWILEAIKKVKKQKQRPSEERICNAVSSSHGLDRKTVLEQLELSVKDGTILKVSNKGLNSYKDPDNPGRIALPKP
The E-score of `ACGAGACG` is reported as 0.0991.
`ACTACTAC` gave an E-score of 0.0359.
`AACGCAGA` gave an E-score of -0.139.
`GTTGCGTA` has an E-score of 0.149.
The E-score of `ATTGATAA` is reported as -0.233.
For `CTGGTATA`, the E-score was -0.0208.
With `AGATCCCT` the E-score was -0.176.
`CTCGTGCA` gave an E-score of -0.0452.
`AAGGGGGC` has an E-score of 0.0273.
`GTACTAAA` has an E-score of -0.0676.
`CTTGCACC` gave an E-score of -0.0357.
For `AGCTCTTC`, the E-score was -0.0379.
`ACCGTAGG` has an E-score of 0.176.
`GGGTAACC` has an E-score of 0.00997.
`ATGGTGAA` gave an E-score of -0.145.
With `ATGGGTCG` the E-score was 0.0286.

Series 3
Target: ABI1, truncated, D143A, DHFR fusion (Arabidopsis thaliana)
Method: DHFR PCA, deep sequencing
Sample: yeast
Setting: methotrexate growth selection, single substitutions
Added: (+)-ABA 0.032 µM
Relative to: wild-type fitted maximum
Direction: higher = stronger binding
Starting sequence: PYL1, truncated, DHFR fusion (Arabidopsis thaliana); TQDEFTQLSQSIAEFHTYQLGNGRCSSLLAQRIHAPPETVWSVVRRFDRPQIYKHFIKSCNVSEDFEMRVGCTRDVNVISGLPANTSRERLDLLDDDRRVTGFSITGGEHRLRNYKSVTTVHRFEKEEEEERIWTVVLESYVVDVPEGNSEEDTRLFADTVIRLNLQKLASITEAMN; partner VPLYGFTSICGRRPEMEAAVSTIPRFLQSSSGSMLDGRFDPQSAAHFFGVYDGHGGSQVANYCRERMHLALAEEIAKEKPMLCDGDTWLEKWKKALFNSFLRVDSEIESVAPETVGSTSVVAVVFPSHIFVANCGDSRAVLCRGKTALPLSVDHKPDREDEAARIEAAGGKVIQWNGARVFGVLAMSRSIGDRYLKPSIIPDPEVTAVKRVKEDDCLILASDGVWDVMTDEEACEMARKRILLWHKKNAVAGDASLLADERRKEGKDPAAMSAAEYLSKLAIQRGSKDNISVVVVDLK
Under “relative binding score”, `D144P` is recorded as -6.23%.
`T101K`: “relative binding score” -0.813%.
`E139N` — result for “relative binding score”: -7.85%.
`M176F`: “relative binding score” -4.72%.
`T101G`: “relative binding score” -5.18%.
`R98M`: “relative binding score” 6.62%.
For `K58S`, “relative binding score” read 9.83%.
`Q10V`: “relative binding score” 6.74%.
For `L93Y`, “relative binding score” read 13%.
`G102W` — result for “relative binding score”: 7.21%.
`F15G`: “relative binding score” -1.46%.
For `E147K`, “relative binding score” read 8.63%.
For `N165S`, “relative binding score” read 6.77%.
`Q19E` — result for “relative binding score”: 47.6%.

Series 4
Target: Interferon regulatory factor 5, full length, phosphomimetic (IRF5, Homo sapiens, UniProt Q13568-2, residues 1-514, S451D/S453D/S456D/S462D)
Method: protein-binding microarray
Form: double-stranded DNA, one strand shown
Sample: in vitro
Concentration: 940 nM top
Setting: 60-bp whole probe
Added: salmon DNA 0.4 mg/ml
Relative to: random background probes
Direction: higher = stronger binding
Shared flanks, not repeated: GCCTAGCAC … GTCTTGATTCGCTTGACGCTGCTG
Under “fitted relative affinity”, `TTATGACTGGGGTATCGGTTAGTGCTA` is recorded as 3.03 z-score.
`GACGGTATCATTTTCCTGACGTGCTAG`: “fitted relative affinity” 2.89 z-score.
Under “fitted relative affinity”, `TCATTTATGTCCTGTCTAACTGTGCTA` is recorded as 0.569 z-score.
Under “fitted relative affinity”, `TTAGATCTCAATCTCGATTAGTGCTAG` is recorded as 1.34 z-score.
For `TCATCTCTCATGTTACAACTGTGCTAG`, “fitted relative affinity” read 2.01 z-score.
`TCACAACTTTTTTTAATACTGTGCTAG` — result for “fitted relative affinity”: 1.05 z-score.
`GACGATTCCAGTTTCCAGACGTGCTAG`: “fitted relative affinity” 0.889 z-score.
`GACGGTTTCGGGACTGAGGACGTGCTA` — result for “fitted relative affinity”: 7.2 z-score.
For `GGCTTGACGTCATCCCCTTGGTGCTAG`, “fitted relative affinity” read -0.701 z-score.
`CAATACCTTATGAATGTGTTGTGCTAG` — result for “fitted relative affinity”: 0.19 z-score.
`TCAAGAATAATTTTTTAGACTGTGCTA` — result for “fitted relative affinity”: -0.263 z-score.
`GCCGATTTCAGTTTCGAGACGTGCTAG` — result for “fitted relative affinity”: 5.48 z-score.
`GACGATATCGGCTATCGAGACGTGCTA` — result for “fitted relative affinity”: 0.0518 z-score.
Under “fitted relative affinity”, `GACGGTATCGGTCTCAGGACGTGCTAG` is recorded as 8.48 z-score.
`TTAGGTACCGACTTTCGGTTAGTGCTA`: “fitted relative affinity” 2.74 z-score.
For `TTAGATTTCGGGTATGGATTAGTGCTA`, “fitted relative affinity” read 1.24 z-score.
Under “fitted relative affinity”, `TTAGGTATCGGACTGGGTTCGTGCTAG` is recorded as 3.66 z-score.

Series 5
Target: RNA binding protein fox-1 homolog 2, RRM domain, GST-SBP tag (RBFOX2, Homo sapiens, UniProt O43251-10, residues 100-194)
Method: RNA Bind-n-Seq
Form: RNA
Sample: in vitro
Concentration: 365 nM
Setting: natural RNA segment, single round, ends assumed
Relative to: no-protein control
Direction: higher = stronger binding
Shared flanks, not repeated: GGGAGUUCUACAGUCCGACGAUC … UGGAAUUCUCGGGUGCCAA
Construct (chain): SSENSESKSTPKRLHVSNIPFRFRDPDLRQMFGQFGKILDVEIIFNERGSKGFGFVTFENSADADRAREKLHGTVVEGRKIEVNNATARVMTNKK
`UUUGUAUAUAACACUUUCAGAGCCUUCCCACCCAUAGGUAGUUCUUAAACCAGGUGAAAGAGCAAAGUUCAAGUGCCUACUUAUGUGUCAUUCGCUCAUGUAAGAGUUUU`: “RBNS enrichment (R)” 0.21.
For `AAGAGGCGGCUACCUAUCCUACAGUUACGGUAUUUAUUUACAUAAGAAGAUCUUACAGGAGUUCUUUGCUUGAAUCCGUUCUAACACCCGCGGCAGCUGCACGCGCUCAC`, “RBNS enrichment (R)” read 0.366.
`AAAGGCCGUUUUAUUAGAAAUUUAGGCUUUCAUGCCUGUAGACCCUAGUUAUUAAAUGCACUAAACAAACAACUGCAUUUAAAGCAUUGGCCUUAGCAGAAGUGACUGAC` — result for “RBNS enrichment (R)”: 0.255.
`GUGGGCCCGGAGUAAUCAGGCAGCCUUCAUAGGCGGUCAUGUGUGCAUGUGAGCACAUGCGUAUAUGUGCGUCUCUCUUUCUCCCUCACCCCCAGGUGUUGCCAUUUCUC` — result for “RBNS enrichment (R)”: 5.8.
Under “RBNS enrichment (R)”, `CUUAAAGCAUCAGUGAAAUUAUGGAAAAUUACUUAAAACGUGAAUACAUCAUCACAGUAGAAUUUAUUAUGAGAGCAUGUAGUAUGUAUCUGUAGCCCUAACACAUGGGA` is recorded as 6.79.
For `CUGAGGCCUGGCUAGGGCCCUCCUGGGCAGAGCCCCUGCCUAGCCCUUCAGGCCUGAUGCCUCAGGCCUGAUUCCCUCCUUUUAAAGCAAUACCUUCAGGUCUGCCAUGC`, “RBNS enrichment (R)” read 0.319.
For `UACCUGUACUAAACCACCUCAGAAAGGAUUUUACAGAAACGUGUUAAAGGUUUUCUCUAACUUCUCAAGUCCCUUGUUUUGUGUUGUGUCUGUGGGGAGGGGUUGUUUUG`, “RBNS enrichment (R)” read 0.581.
Under “RBNS enrichment (R)”, `AUGUGUAGCUGCACUGCCUUUGUCCACUAAGACCUCUAGUUUUUGGUGUAAAAGGGUCCCUGGUUUCCCUAUCAGCUAUAAUUUUUAUAUUUAGAAACUCAAAAUCAUGU` is recorded as 0.356.
`CAGUACCCACAUGGUCUGCAAAAGCCUGGCUUUGCUGGCAACUAUUGGAGAAUGCUUGGUUUGCAUGUCUUGUGAUUUCUCCUGUAUUGUUCCUAGCUAAUUUCAUGGCU`: “RBNS enrichment (R)” 9.33.
`CCUCAAAUCAGUGAUAAUUGGUUUGACUGUACCAUGGUUUGAUAUGUAGUUGGCACCAUGGUAUCAUAUAUUAAAACAAUAAUGCAAUUAGAAUUUGGGAGAAGCAAAUA`: “RBNS enrichment (R)” 0.974.
For `CAGUGUUUAAAGAUUGUUGAUUUUUUUCCUGGGGAUAAUCUAUAUUAUACUGACUUUAUAUUAAUUAUUAUAAAACUGUGUUUGUACUGAAGAUGUGUUCAAUAUUUGUG`, “RBNS enrichment (R)” read 0.615.
`GAAAUAUAUCUACCCAAAGAGGUAACAUCCUAUAAAUAGUAGUAAUUAAUUUAGCUGCAACCUUUUUAGGUAUUAAAUUACAUGACAAACAGUUAAAAUGAAUUUAAGAA` — result for “RBNS enrichment (R)”: 0.557.

Series 6
Target: human cyclin A2
Observed: peptide binding
Method: competitive growth sequencing
Form: peptide
Organism: Saccharomyces cerevisiae
Strain: cyclin A2-Cln2 fusion strain
Concentration: concentration not given
Setting: mutational scanning library 1
Relative to: unfused Cln2 strain
Direction: direction not given
The binding score of `ASPLKKLFTSTGL` is reported as 0.282.
The binding score of `GSPAKKLFTSTGL` is reported as -0.367.
The binding score of `GSALKKLFTSTGL` is reported as 0.991.

A few entries again (series 3):
Under “relative binding score”, `D144P` is recorded as -6.23%.
`T101K`: “relative binding score” -0.813%.
`E139N` — result for “relative binding score”: -7.85%.
`M176F`: “relative binding score” -4.72%.
`T101G`: “relative binding score” -5.18%.
`R98M`: “relative binding score” 6.62%.
For `K58S`, “relative binding score” read 9.83%.
`Q10V`: “relative binding score” 6.74%.
For `L93Y`, “relative binding score” read 13%.
`G102W` — result for “relative binding score”: 7.21%.
`F15G`: “relative binding score” -1.46%.
For `E147K`, “relative binding score” read 8.63%.
For `N165S`, “relative binding score” read 6.77%.
`Q19E` — result for “relative binding score”: 47.6%.
